Results gathered from unrelated publications.
Values joined by “and” are separate records of one study, mostly repeats; a detail may differ. Numbers after ± are the reported error. Values after ≈ are worked out from the molar mass of the structure shown.
BCHE: Cholinesterase (BCHE, Homo sapiens, UniProt P06276)
Sequence of UniProt P06276 (whole entry, looked up): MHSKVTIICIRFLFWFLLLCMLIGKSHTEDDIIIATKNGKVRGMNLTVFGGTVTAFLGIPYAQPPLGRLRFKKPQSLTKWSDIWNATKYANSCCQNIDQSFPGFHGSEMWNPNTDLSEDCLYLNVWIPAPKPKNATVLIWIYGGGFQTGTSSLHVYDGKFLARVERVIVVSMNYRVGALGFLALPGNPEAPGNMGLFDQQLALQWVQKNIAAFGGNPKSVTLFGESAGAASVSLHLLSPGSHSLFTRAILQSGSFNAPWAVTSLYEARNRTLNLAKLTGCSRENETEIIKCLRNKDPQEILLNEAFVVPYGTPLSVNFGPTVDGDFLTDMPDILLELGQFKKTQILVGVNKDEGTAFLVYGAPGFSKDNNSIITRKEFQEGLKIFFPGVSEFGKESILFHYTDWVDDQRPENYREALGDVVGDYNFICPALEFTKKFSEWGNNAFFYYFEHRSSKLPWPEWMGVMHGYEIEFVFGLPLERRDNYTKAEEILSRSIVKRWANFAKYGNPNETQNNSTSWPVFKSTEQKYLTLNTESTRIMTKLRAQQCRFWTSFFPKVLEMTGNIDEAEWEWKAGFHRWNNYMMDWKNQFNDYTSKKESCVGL

SMILES	tested on	assay	system	conditions	how to read	endpoint	result
COc1cc2nc(N3CCN(C(=O)C4COc5ccccc5O4)CC3)nc(N)c2cc1OC (centres unmarked)	Plasmodium falciparum	–	7G8	–	–	IC50	2 µM
CC(C)[C@@H]1NC(=O)[C@@H](CCCCN)NC(=O)[C@H](CCCCN)NC(=O)[C@@H](CCCN)NC(=O)[C@H](C)NC(=O)[C@H](Cc2c[nH]c3ccccc23)NC(=O)[C@@H](Cc2ccccc2)NC1=O	Naegleria fowleri	–	–	trophozoites	–	IC50	> 16 µg/mL
CCN(CC)[C@@H]1CCc2c(F)ccc(O)c2C1	Plasmodium falciparum	–	W2	–	–	IC50	0.631 µM
COC(=O)c1cccc(C#CCCOCCCCCCNC[C@H](O)c2cc(Cl)c(N)c(Cl)c2)c1	Plasmodium falciparum	parasite growth, SYBR Green	–	72 h	reference: 3D7-E182D over 3D7	EC50 ratio	0.9
COc1ccc2c(c1)CN(C(=O)CCN1CCC(Cc3ccccc3)CC1)CCS2	BCHE	inhibitor	–	–	–	IC50	8.62 ± 0.88 µM
NCCCC[C@H]1NC(=O)[C@H](CO)NC(=O)[C@H](Cc2ccccc2)NC(=O)[C@@H](Cc2ccccc2)NC(=O)[C@H](Cc2c[nH]c3ccccc23)NC(=O)[C@@H](CCCN)NC(=O)[C@H](CCCN)NC1=O	Naegleria fowleri	–	–	trophozoites	–	IC50	> 16 µg/mL
Nc1ncnc2c1ncn2[C@@H]1O[C@@H]2COP(=O)(O)O[C@H]3[C@@H](O)[C@H](n4cnc5c(=O)[nH]cnc54)O[C@@H]3COP(=O)(O)O[C@H]2[C@H]1O	West Nile virus	RNA sequencing, item: glycosaminoglycan metabolism diseases R-HSA-3560782	HFF-1 cells	concentration not given, downregulated pathway	reference: WNV-infected untreated cells	fold enrichment	6.89
C#Cc1ccc(C=NNC(=O)c2ccc(Br)cc2Br)c(O)c1	Cryptococcus neoformans	–	H99	unit not given, added: amphotericin B	lower = more synergy	FICI	1.25
CC12CC3CC(C)(C1)CC(N)(C3)C2	Plasmodium falciparum	–	GB4	–	–	IC50	1 µM
Cn1c(=O)ccc2ccc(F)c(CCNC[C@H]3CN(c4cnc5c(n4)NC(=O)CO5)C(=O)O3)c21	Streptococcus pneumoniae	–	–	–	–	MIC50	0.03 µg/mL (≈ 0.064 µM)
C#Cc1ccc(O)c(C=NNC(=O)c2cc(Br)cc(Br)c2O)c1	Cryptococcus neoformans	time-kill	H99	concentration not given	–	time to complete kill	3 h
COc1ccc(-n2ccnc2SCC(=O)Nc2cc(C)ccc2C)c(OC)c1	Plasmodium falciparum	parasite growth, SYBR Green	–	72 h	reference: 3D7-E182D over 3D7	EC50 ratio	4.3
COC(=O)[C@H]1[C@H]2C[C@@H]3c4[nH]c5cc(OC)ccc5c4CCN3C[C@H]2C[C@@H](OC(=O)c2cc(OC)c(OC)c(OC)c2)[C@@H]1OC	Plasmodium falciparum	–	7G8	–	–	IC50	0.316 µM
CS(=O)(=O)CCCn1c(Cn2c(=O)n(CC(F)(F)F)c3ccncc32)cc2cc(Cl)ccc21	respiratory syncytial virus	RT-qPCR	hospitalized infants 1-24 months, nasal swab	oral, 8 mg/kg daily, day 4, cohort 6-24 months	reference: placebo	LS mean difference vs placebo	0.69 log10 copies/mL
CC(=O)NC[C@H]1CN(c2ccc(N3CCOCC3)c(F)c2)C(=O)O1	Streptococcus pneumoniae	–	–	–	–	MIC90	1 µg/mL (≈ 2.96 µM)
C=CCc1ccccc1OCC(O)CNC1(C)CCC(C(C)(C)NC(=O)CBr)CC1 (centres unmarked)	Plasmodium falciparum	–	Dd2	–	–	IC50	3.16 µM
C#Cc1cccc(C=NNC(=O)c2ccc(Br)cc2)c1O	Cryptococcus neoformans	–	H99	unit not given, added: amphotericin B	lower = more synergy	FICI	1.67
CCCCN1[C@@H]2CC[C@H]1C[C@@H](OC(c1ccc(F)cc1)c1ccc(F)cc1)C2	Plasmodium falciparum	–	GB4	–	–	IC50	1.26 µM
OC(c1cc(C(F)(F)F)nc2c(C(F)(F)F)cccc12)C1CCCCN1 (centres unmarked)	Plasmodium falciparum	parasite growth, SYBR Green	3D7 wild type	72 h	–	EC50	0.0176 ± 0.00049 µM
CC(C)(C)[C@]1(O)CCN2C[C@H]3c4ccccc4CCc4cccc(c43)[C@@H]2C1	Plasmodium falciparum	–	GB4	–	–	IC50	5.01 µM
CC(C)[C@@H]1NC(=O)[C@@H](C(C)C)NC(=O)[C@H](C)NC(=O)[C@H](CO)NC(=O)[C@H](Cc2c[nH]c3ccccc23)NC(=O)[C@@H](Cc2ccc(O)cc2)NC(=O)[C@H](CCCN)NC(=O)[C@H](Cc2c[nH]c3ccccc23)NC1=O	Acanthamoeba castellanii	–	–	trophozoites	–	IC90	> 16 µg/mL
CC1(C(=O)Nc2ccc(O)c(Cl)c2Cl)CCCCC1	Botrytis cinerea	lesion diameter	B05.10, cucumber seedlings	spray, 3 days, 20 °C	–	EC95	7 µg/mL (≈ 23.2 µM)

SMILES	tested on	assay	system	conditions	how to read	endpoint	result
O=C(Nc1cccc(CN2CCN(C(=O)c3cccc(Cl)c3)CC2)c1)c1cccs1	Plasmodium falciparum	parasite growth, SYBR Green	3D7 wild type	72 h	–	EC50	0.18 ± 0.046 µM
CC(C)C[C@@H]1NC(=O)CNC(=O)[C@@H](Cc2ccccc2)NC(=O)[C@H](CCCCN)NC(=O)[C@@H](CCCN)NC(=O)[C@@H](C(C)C)NC1=O	Acanthamoeba castellanii	–	–	trophozoites	–	IC50	> 16 µg/mL
COC(=O)c1c(-c2cc(OC)c(OC)c(OC)c2)c2ccc(OCc3ccccn3)cc2c(=O)n1-c1ccc(N)cc1	Plasmodium falciparum	–	W2	–	–	IC50	2.51 µM
CN[C@H](CC(C)C)C(=O)N[C@H]1C(=O)N[C@@H](CC(N)=O)C(=O)N[C@H]2C(=O)N[C@H]3C(=O)N[C@H](C(=O)N[C@H](C(=O)O)c4cc(O)cc(O)c4-c4cc3ccc4O)[C@H](O)c3ccc(c(Cl)c3)Oc3cc2cc(c3O[C@@H]2O[C@H](CO)[C@@H](O)[C@H](O)[C@H]2O[C@H]2C[C@](C)(N)[C@H](O)[C@H](C)O2)Oc2ccc(cc2Cl)[C@H]1O	Staphylococcus aureus	–	ATCC 33591 MRSA	4×MIC	–	biofilm inhibition	1.81%
CC[C@H](C)[C@H](NC(=O)[C@H](C)NC(=O)[C@H](CCCCN)NC(=O)[C@H](CC(C)C)NC(=O)[C@H](C)NC(=O)[C@@H](NC(=O)[C@H](Cc1c[nH]cn1)NC(=O)[C@H](CC(C)C)NC(=O)[C@@H](NC(=O)[C@@H](NC(=O)[C@H](CCCCN)NC(=O)[C@H](C)NC(=O)[C@H](C)NC(=O)[C@H](CO)NC(=O)[C@H](CCCCN)NC(=O)[C@H](Cc1ccccc1)NC(=O)[C@@H](NC(=O)[C@H](CCCCN)NC(=O)[C@H](CC(C)C)NC(=O)[C@H](Cc1ccccc1)NC(=O)[C@H](CO)NC(=O)[C@H](CCCCN)NC(=O)[C@H](Cc1c[nH]c2ccccc12)NC(=O)[C@H](CCCCN)NC(C)=O)[C@@H](C)O)[C@@H](C)O)C(C)C)[C@@H](C)O)C(=O)N[C@@H](CO)C(=O)N[C@@H](CO)C(N)=O	Streptococcus pyogenes	–	erythromycin-sensitive	–	–	MIC geometric mean	15.5 µg/mL (≈ 5.28 µM)
COC(=O)N[C@H](C(=O)N1CCC[C@H]1c1ncc(-c2ccc(-c3ccc(-c4cnc([C@@H]5CCCN5C(=O)[C@@H](NC(=O)OC)C(C)C)[nH]4)cc3)cc2)[nH]1)C(C)C	hepatitis C virus	HCV replicon	–	50% effect level, added: IFN-α, ratio 1:2.5	–	combination index	1.11 and 0.76 and 1
COc1ccccc1Cn1ccnc1SCC(=O)Nc1cc(C(F)(F)F)ccc1Cl	Plasmodium falciparum	parasite growth, SYBR Green	3D7 wild type	72 h	–	EC50	0.0489 ± 0.018 µM
CC1(N2CCC(n3c([C@@H]4CCCNC4)nc4ccccc43)CC2)CCCCCCC1	BCHE	inhibitor	–	–	–	IC50	4.5 ± 0.3 µM
NCc1ccc(-c2nc(-c3ccc(OC4CCC4)cc3)no2)cc1	Clostridioides difficile	spore germination	ATCC 43255	45 µM, 1 h	–	inhibition	12 to 33%
C[C@@H](O)[C@H]1C(=O)N2C(C(=O)O)=C(S[C@@H]3CN[C@H](C(=O)N(C)C)C3)[C@H](C)[C@H]12	Klebsiella pneumoniae	–	NDM-producing, neutropenic BALB/c mouse, thigh infection, thigh	dose not given, 6 h	–	bacterial burden, mean	8.4 log10 CFU/thigh
O=C(NN=Cc1ccc(O)c(Br)c1)c1cccc(Br)c1	Cryptococcus neoformans	–	–	added: fluconazole	lower = more synergistic	FIC index	0.47
CCNC(=O)c1ccc(-n2nc(C)cc2-c2ccccc2)cc1	Plasmodium falciparum	parasite growth, SYBR Green	–	72 h	reference: 3D7-E182D over 3D7	EC50 ratio	3
CC1(C)SC2C(NC(=O)C(NC(=O)C3=C(O)CN(c4ccccc4)C3=O)c3ccccc3)C(=O)N2C1C(=O)O (centres unmarked)	Escherichia coli	broth microdilution	Keio mutant JW2142-1	–	–	MIC	200 µg/mL (≈ 363 µM)
NCc1ccc(-c2nc(-c3ccc(OC(F)(F)F)cc3)no2)cc1	Clostridioides difficile	spore germination	ATCC 43255	45 µM, 1 h	–	inhibition	12 to 33%
Cc1ccccc1C(=O)NN=Cc1ccc(O)c(Br)c1	Cryptococcus neoformans	–	–	concentration not given, added: tunicamycin	–	MIC in combination	0.25 µg/mL
Cc1cc(OC(C)C(=O)N2CCc3ccccc32)ccc1Cl (centres unmarked)	Plasmodium falciparum	parasite growth, SYBR Green	3D7 wild type	72 h	–	EC50	3.19 ± 1.6 µM
C[C@H]1NC(=O)[C@H](Cc2c[nH]c3ccccc23)NC(=O)[C@@H](Cc2ccccc2)NC(=O)[C@@H](CCCN)NC(=O)[C@H]([C@@H](C)O)NC(=O)[C@@H](CCCN)NC(=O)[C@H](Cc2c[nH]c3ccccc23)NC(=O)[C@@H](C)NC1=O	Acanthamoeba castellanii	–	–	trophozoites	–	IC90	> 16 µg/mL
C#Cc1ccc(C=NNC(=O)c2ccc(COC)cc2)c(O)c1	Cryptococcus neoformans	–	H99	unit not given, added: amphotericin B	lower = more synergy	FICI	1.06
CN(C)c1nc(NCc2ccc(OC(F)(F)F)cc2)c(/N=N/c2ccc(Cl)cc2)c(N(C)C)n1	Ostrinia furnacalis	leaf dipping	–	50 mg/L, 96 h	–	mortality	16.7 ± 5.8%
CCOC(=O)c1cn(CC)c2cc(O[C@H]3CCN(C(=O)OC(C)(C)C)C3)ccc2c1=O	Plasmodium falciparum	parasite growth, SYBR Green	–	72 h	reference: 3D7-E182D over 3D7	EC50 ratio	1.9
C[C@@H](O)[C@@H]1NC(=O)[C@H](Cc2ccccc2)NC(=O)[C@@H](Cc2ccccc2)NC(=O)[C@H]([C@@H](C)O)NC(=O)[C@@H](CCCN)NC(=O)[C@H](CCCN)NC(=O)[C@@H](CCCCN)NC1=O	Acanthamoeba castellanii	–	–	trophozoites	–	IC50	> 16 µg/mL
CCN(CC)CCO[C@H]1CC[C@@]2(C)C(=CC[C@@H]3[C@@H]2CC[C@]2(C)C(=O)CC[C@@H]32)C1	human rotavirus	viral replication, focus reduction	MA104, Wa	pretreated 20 h before infection	–	EC50	1.44 µM

Excerpt of the above:
SMILES	tested on	assay	system	conditions	how to read	endpoint	result
Cc1ccccc1C(=O)NN=Cc1ccc(O)c(Br)c1	Cryptococcus neoformans	–	–	concentration not given, added: tunicamycin	–	MIC in combination	0.25 µg/mL
Cc1cc(OC(C)C(=O)N2CCc3ccccc32)ccc1Cl (centres unmarked)	Plasmodium falciparum	parasite growth, SYBR Green	3D7 wild type	72 h	–	EC50	3.19 ± 1.6 µM
C[C@H]1NC(=O)[C@H](Cc2c[nH]c3ccccc23)NC(=O)[C@@H](Cc2ccccc2)NC(=O)[C@@H](CCCN)NC(=O)[C@H]([C@@H](C)O)NC(=O)[C@@H](CCCN)NC(=O)[C@H](Cc2c[nH]c3ccccc23)NC(=O)[C@@H](C)NC1=O	Acanthamoeba castellanii	–	–	trophozoites	–	IC90	> 16 µg/mL
C#Cc1ccc(C=NNC(=O)c2ccc(COC)cc2)c(O)c1	Cryptococcus neoformans	–	H99	unit not given, added: amphotericin B	lower = more synergy	FICI	1.06
CN(C)c1nc(NCc2ccc(OC(F)(F)F)cc2)c(/N=N/c2ccc(Cl)cc2)c(N(C)C)n1	Ostrinia furnacalis	leaf dipping	–	50 mg/L, 96 h	–	mortality	16.7 ± 5.8%
CCOC(=O)c1cn(CC)c2cc(O[C@H]3CCN(C(=O)OC(C)(C)C)C3)ccc2c1=O	Plasmodium falciparum	parasite growth, SYBR Green	–	72 h	reference: 3D7-E182D over 3D7	EC50 ratio	1.9
